Assay results of several laboratories.
Lines come from different studies, so protocols differ.
Cell line: PC-3

SMILES	assay	system	setting	scale	quantity	result
CCCN1CCN(c2ccc3nc(-c4ccc5nc(-c6cc(OC)ccc6OC)[nH]c5c4)[nH]c3c2)CC1	SRB	–	10 µM, 48 h	–	growth percent	103%
Cc1c(Cc2ccccc2)c(=O)oc2c(C)c(OCC(=O)NN=Cc3ccc(Cl)cc3)ccc12	cell viability, MTT	–	–	–	IC50	57.2 µg/mL
CCOc1nc(-c2cccc(O)c2)cc(-c2cc3cc(Cl)ccc3nc2N2CCOCC2)c1C#N	MTT	–	–	baseline: WI-38 EC50 over PC-3 IC50	selectivity ratio	0.167
COc1cnc2cccc(N3CCc4c(cc(Cn5ccnc5C)cc4-c4cn(C)nc4C(F)(F)F)C3=O)c2c1	cell growth, inhibitor	–	120 h	–	EC50	> 30000 nM
CCOc1ccc(-c2nc3cc(-c4nc5cc(N6CCN(C)CC6)ccc5[nH]4)ccc3[nH]2)cc1OCC	SRB	–	10 µM, 48 h	–	growth percent	17.2%
CC(=O)O[C@H]1C(=O)[C@@]2(C)[C@H]([C@H](OC(=O)c3ccccc3)[C@]3(O)C[C@H](OC(=O)[C@H](O)[C@@H](NC(=O)c4ccccc4)c4ccccc4)C(C)=C1C3(C)C)[C@]1(OC(C)=O)CO[C@@H]1C[C@@H]2O	sulforhodamine B	prostate cancer	NCI60 screen	–	TGI	630 nM
Cc1nc(NC(=O)N2CCC[C@H]2C(N)=O)sc1-c1ccnc(C(C)(C)C(F)(F)F)c1	western blot, measured: phospho-PKB/Akt Ser473	–	2 h	–	IC50	1030 nM
CC(C)c1ccc(/C=C2\N=C(SCC(=O)O)N(c3ccccc3)C2=O)cc1	MTT	–	–	baseline: BJ1 over PC-3	selectivity index	1.4
COc1ccc(OC)c(-c2nc3ccc(-c4nc5ccc(N6CCN(C)CC6)cc5[nH]4)cc3[nH]2)c1	SRB	–	10 µM, 48 h	–	growth percent	99.2%
Cc1cc(=O)[nH]c(=O)n1Cc1cn(-c2cc3ccccc3oc2=O)nn1	NCI60 single-dose screen	–	10 µM	–	growth percentage	85.6%
Cc1cc(=O)[nH]n1-c1nc(-c2ccc(Cl)cc2)c2c(NC(=O)c3ccccc3)nnc-2[nH]1	SRB	–	10 µM, NCI60 single-dose screen, prostate cancer	baseline: untreated	cell growth	104%
Cc1ncsc1-c1ccc(CNC(=O)[C@@H]2C[C@@H](O)CN2C(=O)[C@@H](NC(=O)CCCCCCCCCC(=O)N2CCN(CC[C@H](NC(=O)C3(N)CCN(c4ncnc5[nH]ccc45)CC3)c3ccc(Cl)cc3)CC2)C(C)(C)C)cc1	immunoblot, measured: AURKB	–	1 µM, 24 h	–	protein level	decreased
O=P1(C2CCCCC2)CCCCC1	ELISA	–	concentration not given, at IC50	baseline: untreated	IL-6 reduction	60.5%
CSc1nc(-c2ccc(Cl)cc2)c2c(NC(=O)c3ccccc3)nnc-2[nH]1	SRB	–	10 µM, NCI60 single-dose screen, prostate cancer	baseline: untreated	cell growth	76.3%
C[C@H](Nc1ccc2c(c1)OCCn1cc(N3C(=O)OC[C@H]3C(F)F)nc1-2)C(N)=O	western blot, measured: phospho-S6 Ser235/Ser236	–	2 h	–	IC50	1920 nM
CCOc1nc(-c2cccc(O)c2)cc(-c2cc3ccccc3nc2N2CCOCC2)c1C#N	MTT	–	–	baseline: WI-38 EC50 over PC-3 IC50	selectivity ratio	0.322
CC(=NNC(=O)COc1ccc2c(C)c(Cc3ccccc3)c(=O)oc2c1C)c1ccc(Br)cc1	cell viability, MTT	–	–	–	IC50	1.91 µg/mL
O=C(Nc1nnc2n3c(Cc4ccccc4)n[nH]c3nc(-c3ccc(Cl)cc3)c1-2)c1ccccc1	SRB	–	10 µM, NCI60 single-dose screen, prostate cancer	baseline: untreated	cell growth	101%
CCCCN1CCN(c2ccc3[nH]c(-c4ccc5[nH]c(-c6ccc(C(F)(F)F)cc6)nc5c4)nc3c2)CC1	SRB	–	10 µM, 48 h	–	growth percent	-77%
C=CC(=O)N1CCC(COCC(=O)N2CCN(c3nc(-c4cnc(N)nc4C(F)F)nc(N4CCOC[C@@H]4C)n3)CC2)CC1	western blot, measured: phospho-S6 Ser235/Ser236	–	2 h	–	IC50	325 nM
O=C1/C(=C/c2ccc3ccccc3c2O)NC(=S)N1c1ccccc1	MTT	–	–	baseline: BJ1 over PC-3	selectivity index	1.8

SMILES	assay	system	setting	scale	quantity	result
Cn1cncc1C1=CN(c2ncnc3[nH]cnc23)CCS1	–	–	prostate cancer	–	TGI	166000 nM
O=C(Nc1nnc2[nH]c(=S)[nH]c(-c3ccc(Cl)cc3)c1-2)c1ccccc1	SRB	–	10 µM, NCI60 single-dose screen, prostate cancer	baseline: untreated	cell growth	92.8%
O=c1ccn(Cc2cn(-c3cc4ccccc4oc3=O)nn2)c(=O)[nH]1	NCI60 single-dose screen	–	10 µM	–	growth percentage	89.3%
CCc1c(C)c2ccc(OCC=Cc3ccccc3)c(C)c2oc1=O	cell viability, MTT	–	–	–	IC50	85.3 µg/mL
C#C[C@@]1(O)[C@@H](CO)O[C@@H](n2ccc3c(N)ncnc32)[C@@H]1O	SRB	–	NCI-60 screen	–	TGI	3540 nM
CCCCN1CCN(c2ccc3[nH]c(-c4ccc5[nH]c(-c6cc(OC)c(OC)c(OC)c6)nc5c4)nc3c2)CC1	SRB	–	10 µM, 48 h	–	growth percent	57.4%
NCc1cc2c(-c3ccccc3)n[nH]c2c(Nc2ccccc2)n1	flow cytometry	–	IC50, 24 h	–	S-phase cells	17%
Cc1cc(C)n(-c2nc(-c3ccc(Cl)cc3)c3c(NC(=O)c4ccccc4)nnc-3[nH]2)n1	SRB	–	10 µM, NCI60 single-dose screen, prostate cancer	baseline: untreated	cell growth	93.8%
CCCC(CCC)C(=O)OCc1cn(-c2c3ccccc3nc3ccccc23)nn1	NCI60 single-dose screen	–	10 µM	–	growth percentage	91.6%
CCCOc1nc(-c2cccc(O)c2)cc(-c2cc3cc(Cl)ccc3nc2N2CCOCC2)c1C#N	MTT	–	–	baseline: WI-38 EC50 over PC-3 IC50	selectivity ratio	0.113
Cc1nc(NC(=O)N2CCC[C@H]2C(N)=O)sc1-c1ccnc(C(C)(C)C(F)(F)F)c1	immunoblot, measured: AURKB	–	1 µM, 24 h	–	protein level	decreased
CCCN1CCN(c2ccc3[nH]c(-c4ccc5[nH]c(-c6ccc(C(F)(F)F)cc6)nc5c4)nc3c2)CC1	SRB	–	10 µM, 48 h	–	growth percent	-68%
NC1(C(=O)N[C@@H](CCO)c2ccc(Cl)cc2)CCN(c2ncnc3[nH]ccc23)CC1	immunoblot, measured: AURKB	–	1 µM, 24 h	–	protein level	decreased
CCNC(=S)NNC(=O)COc1ccc2c(C)c(CC)c(=O)oc2c1C	cell viability, MTT	–	–	–	IC50	133 µg/mL
CCN(CC)c1ccc(C=NNC(=O)CSc2nc3ccccc3c(=O)n2Cc2ccc(S(N)(=O)=O)cc2)c(O)c1	NCI five-dose screen	–	–	–	TGI	> 100000 nM
O=C(Nc1nnc2n3c(=S)[nH][nH]c3nc(-c3ccc(Cl)cc3)c1-2)c1ccccc1	SRB	–	10 µM, NCI60 single-dose screen, prostate cancer	baseline: untreated	cell growth	94.2%
O=P1(c2ccccc2)CCCCC1	MTT	–	72 h	baseline: IC50 HaCaT over IC50 PC-3	selectivity index	1
CS(=O)(=O)N1CCN(Cc2cc3nc(-c4cccc5[nH]ncc45)nc(N4CCOCC4)c3s2)CC1	immunoblot, measured: PDCD4	–	1 µM, 24 h	–	protein level	increased
CCC(=O)N1CCC(COCC(=O)N2CCN(c3nc(-c4cnc(N)nc4C(F)F)nc(N4CCOC[C@@H]4C)n3)CC2)CC1	resazurin growth rate inhibition	–	72 h	–	GR50	1580 nM
CCc1c(C)c2ccc(OCc3nnc(S)n3N)c(C)c2oc1=O	cell viability, MTT	–	–	–	IC50	40.6 µg/mL

For quick reference, copied from above:
SMILES	assay	system	setting	scale	quantity	result
Cc1nc(NC(=O)N2CCC[C@H]2C(N)=O)sc1-c1ccnc(C(C)(C)C(F)(F)F)c1	western blot, measured: phospho-PKB/Akt Ser473	–	2 h	–	IC50	1030 nM
CC(C)c1ccc(/C=C2\N=C(SCC(=O)O)N(c3ccccc3)C2=O)cc1	MTT	–	–	baseline: BJ1 over PC-3	selectivity index	1.4
COc1ccc(OC)c(-c2nc3ccc(-c4nc5ccc(N6CCN(C)CC6)cc5[nH]4)cc3[nH]2)c1	SRB	–	10 µM, 48 h	–	growth percent	99.2%
Cc1cc(=O)[nH]c(=O)n1Cc1cn(-c2cc3ccccc3oc2=O)nn1	NCI60 single-dose screen	–	10 µM	–	growth percentage	85.6%
Cc1cc(=O)[nH]n1-c1nc(-c2ccc(Cl)cc2)c2c(NC(=O)c3ccccc3)nnc-2[nH]1	SRB	–	10 µM, NCI60 single-dose screen, prostate cancer	baseline: untreated	cell growth	104%
Cc1ncsc1-c1ccc(CNC(=O)[C@@H]2C[C@@H](O)CN2C(=O)[C@@H](NC(=O)CCCCCCCCCC(=O)N2CCN(CC[C@H](NC(=O)C3(N)CCN(c4ncnc5[nH]ccc45)CC3)c3ccc(Cl)cc3)CC2)C(C)(C)C)cc1	immunoblot, measured: AURKB	–	1 µM, 24 h	–	protein level	decreased
O=P1(C2CCCCC2)CCCCC1	ELISA	–	concentration not given, at IC50	baseline: untreated	IL-6 reduction	60.5%
